Results pooled from the literature.
Parts stem from different laboratories: compare values within a part only. Substitutions count along the parent as printed.

Series 1 — method: RNA Bind-n-Seq; form: RNA; matrix: in vitro; tested at: 200 nM; setting: whole 134-nt RNA, ends assumed; added: 150 mM KCl; reference: input library; reading: higher = stronger binding; measurement: log2 enrichment
Target: Fragile X messenger ribonucleoprotein 1, C-terminal low-complexity region (Fmr1, Mus musculus, UniProt P35922)
Constant ends, left off below: GGGAGUUCUACAGUCCGACGAUC … UGGAAUUCUCGGGUGUCAAGG
ACCAUGCAGGUGGGCAUCAAAGGGAAGUGGGGCAAGGGGGGGAUAGGGAGGGGGGUAACACUUUGGGAACAGGUGGUCCCAGGUCGUUUC: 0.639
UAAGUUUAGAGGAGGAUCUGAUGGAUAUGGCAGUGGACGUGGAUUUGGGGAUGGCUAUAAUGGGUAUGGAGGAGGACCUGGAGGUGGCAA: 0.253
GCAGGAAGUAAAAUCAAAUGGAAAUGCUUCGGAUAGUGGCAGGGGUGGGGGUUGCUAAGGAAAGGGUGGGAUGGGAGUGGGUAAAGAGUU: 0.332
CCUCAAGUCCUGUGCUACACAUCGUAUGUACCGAAUCGGUUUGGAGGAAAGGAAAGUAUUAUGUUACGCCGUUCGGAUCUGCACUUCCAG: 0.226
UCAAGUCCUGUGCUACACAUCGUAUGUACCGAAUCGGUUUGGGUUUGGUUUGGGGAAAGUAUUAUGUUACGCCGUUCGGAUCUGCACUUC: -0.313
GAAAUUUGGUUAUGUGGAUUUUGAAUCUGCUGAAGACCUGGAGAAAGCGUUGGAACUCACUGGUUUGAAAGUCUUUGGCAAUGAAAUUAA: -2.06
ACCAUGCAGGUGGGCAUCUUUGGGAAGUGGGGCAAGGGGUGGAUAGGGAGGGGGGUAACACUUUGGGAACAGGUGGUCCCAGGUCGUUUC: 0.797
UCCUCAAGUCCUGUGCUACACAUCGUAUGUACCGAAUCGGAGGGAGGGGAGGAAAGUAUUAUGUUACGCCGUUCGGAUCUGCACUUCCAG: 0.374
CUCAAGUCCUGUGCUACACAUCGUAUGUACCGAAUCGGUUUGGAGGUUUUUGGAAAGUAUUAUGUUACGCCGUUCGGAUCUGCACUUCCA: -0.0854
UGGCCCUGGUGGCAUGCGGGGCGGAAGAGGUGGCCUCAUGGAUCGUGGUGGUCCCGGUGGAAUGUUCAGAGGUGGCCGUGGUGGAGACAG: -0.147
AAGUCCUGUGCUACACAUCGUAUGUACCGAAUCGGUUUUUUUGGAAAGGAAAAAGGAAAGUAUUAUGUUACGCCGUUCGGAUCUGCACUU: -1.03
CUCAAGUCCUGUGCUACACAUCGUAUGUACCGAAUCGGAGGUUUUUGGUUUGGAAAGUAUUAUGUUACGCCGUUCGGAUCUGCACUUCCA: -0.689
GCAGGAAGUAAAAACAAAUGGAAAUUCUUCGGAUAGUGGCAGGGGUGGGGGUUGCUAAGGAAAGGGUGGGAUGGGAGUGGGUAAAGAGUU: -0.0153
CUGUGCUACACAUCGUAUGUACCGAAUCGGGGUUUUUGGGGAAAAAAAGGGGUUUUUGGGGAAAGUAUUAUGUUACGCCGUUCGGAUCUG: 0.0272

Series 2 — method: DHFR PCA, deep sequencing; matrix: yeast; added: (+)-ABA 0.032 µM; reference: wild-type fitted maximum; reading: higher = stronger binding; measurement: relative binding score
Target: ABI1, truncated, D143A, DHFR fusion (Arabidopsis thaliana)
Setting: methotrexate growth selection, single substitutions
Parent: PYL1, truncated, DHFR fusion (Arabidopsis thaliana); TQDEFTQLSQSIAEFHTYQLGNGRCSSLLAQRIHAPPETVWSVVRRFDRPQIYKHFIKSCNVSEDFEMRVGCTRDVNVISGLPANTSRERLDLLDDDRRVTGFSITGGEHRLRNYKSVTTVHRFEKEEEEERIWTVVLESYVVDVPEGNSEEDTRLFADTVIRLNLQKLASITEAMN
K54A: 3.57%
S104Y: -5.81%
A170T: 1.04%
H55N: 15%
Q10R: 21%
F157R: 4.89%
L91E: -2.84%
E109H: 4.87%
R74G: 2.13%
G108V: -2.35%
D48K: -2.08%
F103L: 2.37%
V142S: 15.3%
Y53C: -0.974%
C25M: 1.23%
T119K: 0.0382%
D3P: 7.92%
L94S: 3.95%
Q2H: 37%
N61G: 0.455%
L8V: 4.48%
A30S: 26.7%
D92G: 3.35%
S140E: 9.23%
F124K: 3.21%

Series 3 — method: Sort-seq; item: YFP reporter; matrix: E. coli; setting: PhoQ-PhoP variant library; added: 10 µM Mg2+; reference: high Mg2+ state; reading: higher = stronger signaling; measurement: fold induction
Molecule: PhoQ, residues 284 288 289 292 302 303 QWGLFV
PhoP, residues 12 14 15 18 19 STHWV (Escherichia coli, UniProt P23836): 9.22
PhoP, residues 12 14 15 18 19 QYCSL (Escherichia coli, UniProt P23836): 9.48
PhoP, residues 12 14 15 18 19 SHWTV (Escherichia coli, UniProt P23836): 1.64

Series 4 — target: CCNA2, cyclin fold, Cln2 fusion (human); method: yeast growth competition, sequencing; matrix: yeast; setting: strong parent motif; reference: not given; reading: higher = stronger binding; measurement: normalised enrichment score
Parent: CDKN1A docking peptide (human); SKACRRLFGPVDS
SKAHRRLFGPVDS [C4H]: 4.24
SKAQRRLFGPVDS [C4Q]: 4.82
SKECRRLFGPVDS [A3E]: 0.304
SKACRRLNGPVDS [F8N]: -0.0331
SKICRRLFGPVDS [A3I]: 5.25
SKACRMLFGPVDS [R6M]: 4.9
SKACRRLRGPVDS [F8R]: 0.293
SKACRLLFGPVDS [R6L]: 2.4
SKACYRLFGPVDS [R5Y]: 0.47
SKACRRCFGPVDS [L7C]: 0.541
SKACRRLFGVVDS [P10V]: 5.07
SKACRRLFGPVRS [D12R]: 4.78
SKDCRRLFGPVDS [A3D]: 0.504
SKQCRRLFGPVDS [A3Q]: 0.865
SKACRRPFGPVDS [L7P]: 0.506
SKACRRLFGPVIS [D12I]: 5.13
SKACNRLFGPVDS [R5N]: 0.458
SKACRRLDGPVDS [F8D]: 0.352
SKACRRLCGPVDS [F8C]: 0.519
SKACRREFGPVDS [L7E]: -0.15
SKALRRLFGPVDS [C4L]: 1.69
SKACRRLFGCVDS [P10C]: 5.09
SKASRRLFGPVDS [C4S]: 5.17
SKACRRLFGPNDS [V11N]: 5.9
SLACRRLFGPVDS [K2L]: 4.23

Series 5 — method: RNA Bind-n-Seq; form: RNA; matrix: in vitro; tested at: 365 nM; reference: no-protein control; reading: higher = stronger binding; measurement: RBNS enrichment (R)
Target: RNA binding protein fox-1 homolog 2, RRM domain, GST-SBP tag (RBFOX2, Homo sapiens, UniProt O43251-10, residues 100-194)
Setting: natural RNA segment, single round, ends assumed
Constant ends, left off below: GGGAGUUCUACAGUCCGACGAUC … UGGAAUUCUCGGGUGCCAA
Construct (chain): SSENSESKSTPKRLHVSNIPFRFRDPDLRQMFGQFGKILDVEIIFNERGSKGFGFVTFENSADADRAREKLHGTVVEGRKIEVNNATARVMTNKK
AAGAGUGACCAGUGCUGGCCCGACGGAUCGCUGAGAUAUUCUCCCAUAAUGGCAAAAAAUAGGCAGUUUGAUGUGACCUGUUUAGUGUGGCUCUCCUCUUUUGAGCAUGU: 14.5
CCCCUUAGAUGGAGUCUUGCUCUGUCACCCAGGUUGGAGUGCAGUGGCACAAUCAGCUCACUGCAACCCCUCCUCCUAGGUUCAAGCGAUUGAGUAGCUGAGAUUACAGG: 0.261
ACAGGAUGCUGCCUUGCCUGGUUUUGUUCUGAGCUGGUGAAUCCUUUGCUCUUUCAGCUAUUCUAGAGUGGCCUGUGAGCAAAUGAACUUCUCUCUCUCUCUCUCUCUCU: 0.923
AUUUCUGUGCACAUCCUUGGAGGCGAGAUGAGCUCCUUGCAGAGGGCCAGAGUAAGUGCAAGUCAUGGAGUGCAGGCAGAGGGGUCCAUGGCUUCCCCAGCCCAGGGAGG: 0.482
CAAGUCAUUUUUGUAUUUUUCAUCUUUAAGAAUGCUUAAAAAAGCUAAUCCCUAAAAUAGUUAGAUCUUUGUAAAUGCAUAUUAAAUAAUAAAGUAUGACCCACAUUACU: 0.359
AGGUCUCGCUGAUGCUGGGCUGGGUGCGACCCCAUCUGCCCAGGACGGGGCCGGCCAGGUGGGCGGGCAGCACAGCAAGGAGGCUGGCUGGGGCCUAUCAGUGUGCCCCC: 0.35
GUUCUUGUCUUGAGUCGACUCAAUUUAGCCCAAGUGCUGAAACAAGAAAUGUCAUUUUUUUCAUCAAAGACACCAGGGCAGAUUUUUAAGUAAAGAAAGACAAUUGGACC: 0.409
UAACAUAUACUUGCUAUAGCUAAUGAAAAGGGCUUUUCUUUUUUCUUUUUCUUUCUCUUUUUUUCCUUUUUCACUCAAAAUACUAUUAAGGAGUUUCUCAGACAAAUUGA: 0.75
CAAAUGAAAAGCAAUUUUUGAGACUGAAUCUGUUGCUAUUUUAAAGGUUAUUGUGGGAAACUGAGCUAAAGGAGUUAGCAUCUUUAUUUUUGUAUCAAAAAUAAAGGUUA: 0.852
CCAUUGCUCCUUCUGAAGCAUUUCUCAUGUCUAGGUUUUCCUUGGAAGCAUAUUUAGCCAUCUAUGUGGCUUUAUGGCCCACAGACCUUGCCUUUUAGUCCUAUACAAAU: 0.313
AAUCAACUAGAUUGACCUAGGUUAAAAUUUCAAAAGGCUCAUUUUCUCCCAAAGCUAAAUCUUUAUAUUAGGAACAAUUAAAUAUUGACUUAAGUUGUAAAAAUUGAGAG: 0.891
AAAGCCAGGGUGAUGCUCAGACAGUGUGCCAGCCAAAAUGACUUGGGGGAGGGGAGCCGCUUCCCCACUGUUGCUCUUUUUUAAACAAAUUGAGUUCCUUUUUUUAAGAU: 0.682

Some of these lines once more (series 5):
AAGAGUGACCAGUGCUGGCCCGACGGAUCGCUGAGAUAUUCUCCCAUAAUGGCAAAAAAUAGGCAGUUUGAUGUGACCUGUUUAGUGUGGCUCUCCUCUUUUGAGCAUGU: 14.5
CCAUUGCUCCUUCUGAAGCAUUUCUCAUGUCUAGGUUUUCCUUGGAAGCAUAUUUAGCCAUCUAUGUGGCUUUAUGGCCCACAGACCUUGCCUUUUAGUCCUAUACAAAU: 0.313
AAUCAACUAGAUUGACCUAGGUUAAAAUUUCAAAAGGCUCAUUUUCUCCCAAAGCUAAAUCUUUAUAUUAGGAACAAUUAAAUAUUGACUUAAGUUGUAAAAAUUGAGAG: 0.891
AGGUCUCGCUGAUGCUGGGCUGGGUGCGACCCCAUCUGCCCAGGACGGGGCCGGCCAGGUGGGCGGGCAGCACAGCAAGGAGGCUGGCUGGGGCCUAUCAGUGUGCCCCC: 0.35
ACAGGAUGCUGCCUUGCCUGGUUUUGUUCUGAGCUGGUGAAUCCUUUGCUCUUUCAGCUAUUCUAGAGUGGCCUGUGAGCAAAUGAACUUCUCUCUCUCUCUCUCUCUCU: 0.923
AAAGCCAGGGUGAUGCUCAGACAGUGUGCCAGCCAAAAUGACUUGGGGGAGGGGAGCCGCUUCCCCACUGUUGCUCUUUUUUAAACAAAUUGAGUUCCUUUUUUUAAGAU: 0.682
CAAGUCAUUUUUGUAUUUUUCAUCUUUAAGAAUGCUUAAAAAAGCUAAUCCCUAAAAUAGUUAGAUCUUUGUAAAUGCAUAUUAAAUAAUAAAGUAUGACCCACAUUACU: 0.359
CCCCUUAGAUGGAGUCUUGCUCUGUCACCCAGGUUGGAGUGCAGUGGCACAAUCAGCUCACUGCAACCCCUCCUCCUAGGUUCAAGCGAUUGAGUAGCUGAGAUUACAGG: 0.261
GUUCUUGUCUUGAGUCGACUCAAUUUAGCCCAAGUGCUGAAACAAGAAAUGUCAUUUUUUUCAUCAAAGACACCAGGGCAGAUUUUUAAGUAAAGAAAGACAAUUGGACC: 0.409
UAACAUAUACUUGCUAUAGCUAAUGAAAAGGGCUUUUCUUUUUUCUUUUUCUUUCUCUUUUUUUCCUUUUUCACUCAAAAUACUAUUAAGGAGUUUCUCAGACAAAUUGA: 0.75
